Assay results from different studies.
A part holds a random share of what one study measured. Changes are numbered by the printed parent chain.

Set 1 — method: protein binding microarray; form: double-stranded DNA, one strand shown; sample: in vitro; tested at: not given; baseline: not given; reading: higher = stronger binding; endpoint: E-score
Target: Histone acetyltransferase KAT6A, both winged helices, GST fusion (KAT6A, Homo sapiens, UniProt Q92794, residues 1-181)
Setting: 8-mer, flanks averaged, mean of 2 arrays, mostly near background
Residues (chain): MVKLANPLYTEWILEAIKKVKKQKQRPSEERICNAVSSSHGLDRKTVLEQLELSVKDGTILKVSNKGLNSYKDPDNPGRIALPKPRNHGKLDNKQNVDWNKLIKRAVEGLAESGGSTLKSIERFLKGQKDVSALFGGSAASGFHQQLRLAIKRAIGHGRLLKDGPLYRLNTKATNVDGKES
CCGACCGG: 0.218
CCACGTGA: -0.078
ATAGATTA: -0.0305
ATACGGAC: 0.207
ATAAAGTC: 0.0215
CTCAGTCA: -0.205

Set 2 — method: RNA Bind-n-Seq; form: RNA; sample: in vitro; tested at: not given; baseline: input RNA pool; reading: higher = stronger binding; endpoint: bound/input enrichment
Target: RING finger protein unkempt homolog, zinc fingers 1-6, GST-SBP tag (UNK, Homo sapiens, UniProt Q9C0B0, residues 30-357)
Chain of UniProt Q9C0B0 (30-357, looked up): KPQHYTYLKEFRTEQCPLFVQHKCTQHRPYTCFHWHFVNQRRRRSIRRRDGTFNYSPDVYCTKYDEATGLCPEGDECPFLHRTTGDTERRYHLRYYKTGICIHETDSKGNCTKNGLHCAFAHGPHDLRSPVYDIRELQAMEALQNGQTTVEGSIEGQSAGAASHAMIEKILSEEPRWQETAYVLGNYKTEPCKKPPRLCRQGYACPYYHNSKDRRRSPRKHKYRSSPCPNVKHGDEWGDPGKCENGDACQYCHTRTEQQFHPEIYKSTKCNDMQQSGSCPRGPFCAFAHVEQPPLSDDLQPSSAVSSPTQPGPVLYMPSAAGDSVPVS
Setting: RNA with constant flanks, human-mouse chimeric sites, ends assumed
GGGAGUUCUACAGUCCGACGAUCCCAAUUGUGGAGCAGUACUUGAAGACAAAGAAAAAUUCUAAUAAUUUAAUCAUGAAAUACAUUAGCUGCCGCCUGCUGACACUCAUCAUUAUACUGUUAGCGUGUAUCUACUUGAGCUAUCAACAGAGGAUUGAGCAUCA: 0.631 ratio
GGGAGUUCUACAGUCCGACGAUCUCUUUAAAAAAAAAAUUACCUUUUCUGACAGUGCUUUAUGGAGUAAAGGUCCAGGUUCAAGCUCAAAGAGCAAAGGCUUUGCACGGAGCUCAAACAUCUGAUGAAGAAAGAUUUCUGAGACAACAGAGGAUUGAGCAUCA: 0.147 ratio
GGGAGUUCUACAGUCCGACGAUCCAGCGCCGAGGCCGCGGGUGCCCGCCGGGCCUCCCCAGCCGCCGCCAUGGGCAUCAAAUUUUUAGAAGUUAUCAAACCAUUCUGUGCAGUUCUACCAGAAAUUCAGAAACCGGAAAGGAACAACAGAGGAUUGAGCAUCA: 1.13 ratio

Other studies, line by line — CCNB3: CCNB3, cyclin fold, Cln2 fusion (human)
P1: ORC1 docking peptide (human); PRARKRLELGNLG; partner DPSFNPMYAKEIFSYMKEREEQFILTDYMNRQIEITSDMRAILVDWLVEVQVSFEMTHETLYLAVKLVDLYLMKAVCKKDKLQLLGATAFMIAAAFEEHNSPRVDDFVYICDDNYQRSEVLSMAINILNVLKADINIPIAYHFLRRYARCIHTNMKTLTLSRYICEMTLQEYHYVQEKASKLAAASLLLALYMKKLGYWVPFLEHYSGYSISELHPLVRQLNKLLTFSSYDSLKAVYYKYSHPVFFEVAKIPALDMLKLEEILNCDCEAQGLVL
MDASRQLMLNEEQ  binding score (Saccharomyces cerevisiae; peptide binding, yeast competitive growth sequencing; peptide, cyclin F-Cln2 fusion; concentration not given, Cln2 background subtracted; direction not given): 1.45
PhoQ, residues 284 288 289 292 302 303 GLASVI  fold induction (PhoP, residues 12 14 15 18 19 VHSCL (Escherichia coli, UniProt P23836); Sort-seq, refers to: YFP reporter; E. coli; PhoQ-PhoP variant library, together with: 10 µM Mg2+; baseline: high Mg2+ state, higher = stronger signaling): 6.56
P1 L9I  normalised enrichment score (CCNB3; yeast growth competition, sequencing; yeast; weak parent motif; baseline: not given, higher = stronger binding): 0.253
KLLPRKLQFFCDP  binding score (Saccharomyces cerevisiae; peptide binding, yeast competitive growth sequencing; peptide, cyclin F-Cln2 fusion; concentration not given, Cln2 background subtracted; direction not given): 6.25
P1 E8M  normalised enrichment score (CCNB3; yeast growth competition, sequencing; yeast; weak parent motif; baseline: not given, higher = stronger binding): 0.025

A few entries again (set 1):
ATAAAGTC: 0.0215
